# Measurements pooled from the literature.
# Each numbered part is a random draw from the data of one study; scales do not carry over between parts. Substitutions count along the parent as printed.

# Study 1
# Target: TAR DNA-binding protein 43, full length, His tag (TARDBP, Homo sapiens, UniProt Q13148, residues 1-414)
# Method: RNA Bind-n-Seq
# Form: RNA
# Sample: in vitro
# Tested at: 20 nM
# Notes: 6-mer, flanks averaged, single round
# Together with: 150 mM KCl
# Relative to: input library
# Direction: higher = stronger binding
Strand,6-mer enrichment (R)
CGGAAG,1.56
ACGAAA,0.669
GCGGGA,4.83
GCACGG,1.95
GAGAUU,0.778
UUGAAG,0.85
CCAAGU,0.685
UGGCGG,3.46
AUAGUG,0.932

# Study 2
# Target: CCND3, cyclin fold, Cln2 fusion (human)
# Method: yeast growth competition, sequencing
# Sample: yeast
# Notes: weak parent motif
# Relative to: not given
# Direction: higher = stronger binding
# Parent: E2F1 docking peptide (human); PPVKRRLDFETDH; partner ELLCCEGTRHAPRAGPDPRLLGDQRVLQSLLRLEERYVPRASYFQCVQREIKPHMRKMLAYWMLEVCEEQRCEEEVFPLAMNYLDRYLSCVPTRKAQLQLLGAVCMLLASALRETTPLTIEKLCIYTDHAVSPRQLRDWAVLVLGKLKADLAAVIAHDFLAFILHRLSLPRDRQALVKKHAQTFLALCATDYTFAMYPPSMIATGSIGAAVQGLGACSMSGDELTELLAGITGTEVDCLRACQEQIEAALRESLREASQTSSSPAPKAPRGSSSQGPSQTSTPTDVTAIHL
Change,normalised enrichment score
V3T,0.543
R5E,-0.257
E10M,-0.00277
P2A,0.0935
D12W,0.343
E10K,-0.00607
P2L,0.0422
R5D,0.152
K4A,0.97
R6K,0.364
R6F,0.599

# Study 3
# Target: Histone acetyltransferase KAT6A, both winged helices, GST fusion (KAT6A, Homo sapiens, UniProt Q92794, residues 1-181)
# Method: protein binding microarray
# Form: double-stranded DNA, one strand shown
# Sample: in vitro
# Tested at: not given
# Notes: 8-mer, flanks averaged, mean of 2 arrays, mostly near background
# Relative to: not given
# Direction: higher = stronger binding
# Target sequence (chain): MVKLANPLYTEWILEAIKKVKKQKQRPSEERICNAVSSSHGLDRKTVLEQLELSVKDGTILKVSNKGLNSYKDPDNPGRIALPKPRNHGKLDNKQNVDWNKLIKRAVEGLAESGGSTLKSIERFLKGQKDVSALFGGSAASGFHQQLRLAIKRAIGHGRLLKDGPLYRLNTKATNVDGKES
Strand,E-score
GAGTGTCC,-0.0699
ATATCCCA,0.0236
GGTGAATA,-0.0471
ATCTCCTC,-0.166
CGACGTGA,0.00695
CGACTCCC,-0.0194
GCGCTTGA,0.277
GACTACTA,0.0174

# Mixed results
Substance,target,test,test system,conditions,how to read,endpoint,result
"PhoQ, residues 284 288 289 292 302 303 SNSSNI","PhoP, residues 12 14 15 18 19 AQALL (Escherichia coli, UniProt P23836)","Sort-seq, refers to: YFP reporter",E. coli,"PhoQ-PhoP variant library, together with: 10 µM Mg2+","relative to: high Mg2+ state, higher = stronger signaling",fold induction,14.3

# For quick reference, copied from above (mixed results):
Substance,target,test,test system,conditions,how to read,endpoint,result
"PhoQ, residues 284 288 289 292 302 303 SNSSNI","PhoP, residues 12 14 15 18 19 AQALL (Escherichia coli, UniProt P23836)","Sort-seq, refers to: YFP reporter",E. coli,"PhoQ-PhoP variant library, together with: 10 µM Mg2+","relative to: high Mg2+ state, higher = stronger signaling",fold induction,14.3
